Assay results collected from several papers.
Each numbered part is a random draw from the data of one study; scales do not carry over between parts. Changes are numbered by the printed parent chain.
Sequence of UniProt Q9BX84 (whole entry, looked up): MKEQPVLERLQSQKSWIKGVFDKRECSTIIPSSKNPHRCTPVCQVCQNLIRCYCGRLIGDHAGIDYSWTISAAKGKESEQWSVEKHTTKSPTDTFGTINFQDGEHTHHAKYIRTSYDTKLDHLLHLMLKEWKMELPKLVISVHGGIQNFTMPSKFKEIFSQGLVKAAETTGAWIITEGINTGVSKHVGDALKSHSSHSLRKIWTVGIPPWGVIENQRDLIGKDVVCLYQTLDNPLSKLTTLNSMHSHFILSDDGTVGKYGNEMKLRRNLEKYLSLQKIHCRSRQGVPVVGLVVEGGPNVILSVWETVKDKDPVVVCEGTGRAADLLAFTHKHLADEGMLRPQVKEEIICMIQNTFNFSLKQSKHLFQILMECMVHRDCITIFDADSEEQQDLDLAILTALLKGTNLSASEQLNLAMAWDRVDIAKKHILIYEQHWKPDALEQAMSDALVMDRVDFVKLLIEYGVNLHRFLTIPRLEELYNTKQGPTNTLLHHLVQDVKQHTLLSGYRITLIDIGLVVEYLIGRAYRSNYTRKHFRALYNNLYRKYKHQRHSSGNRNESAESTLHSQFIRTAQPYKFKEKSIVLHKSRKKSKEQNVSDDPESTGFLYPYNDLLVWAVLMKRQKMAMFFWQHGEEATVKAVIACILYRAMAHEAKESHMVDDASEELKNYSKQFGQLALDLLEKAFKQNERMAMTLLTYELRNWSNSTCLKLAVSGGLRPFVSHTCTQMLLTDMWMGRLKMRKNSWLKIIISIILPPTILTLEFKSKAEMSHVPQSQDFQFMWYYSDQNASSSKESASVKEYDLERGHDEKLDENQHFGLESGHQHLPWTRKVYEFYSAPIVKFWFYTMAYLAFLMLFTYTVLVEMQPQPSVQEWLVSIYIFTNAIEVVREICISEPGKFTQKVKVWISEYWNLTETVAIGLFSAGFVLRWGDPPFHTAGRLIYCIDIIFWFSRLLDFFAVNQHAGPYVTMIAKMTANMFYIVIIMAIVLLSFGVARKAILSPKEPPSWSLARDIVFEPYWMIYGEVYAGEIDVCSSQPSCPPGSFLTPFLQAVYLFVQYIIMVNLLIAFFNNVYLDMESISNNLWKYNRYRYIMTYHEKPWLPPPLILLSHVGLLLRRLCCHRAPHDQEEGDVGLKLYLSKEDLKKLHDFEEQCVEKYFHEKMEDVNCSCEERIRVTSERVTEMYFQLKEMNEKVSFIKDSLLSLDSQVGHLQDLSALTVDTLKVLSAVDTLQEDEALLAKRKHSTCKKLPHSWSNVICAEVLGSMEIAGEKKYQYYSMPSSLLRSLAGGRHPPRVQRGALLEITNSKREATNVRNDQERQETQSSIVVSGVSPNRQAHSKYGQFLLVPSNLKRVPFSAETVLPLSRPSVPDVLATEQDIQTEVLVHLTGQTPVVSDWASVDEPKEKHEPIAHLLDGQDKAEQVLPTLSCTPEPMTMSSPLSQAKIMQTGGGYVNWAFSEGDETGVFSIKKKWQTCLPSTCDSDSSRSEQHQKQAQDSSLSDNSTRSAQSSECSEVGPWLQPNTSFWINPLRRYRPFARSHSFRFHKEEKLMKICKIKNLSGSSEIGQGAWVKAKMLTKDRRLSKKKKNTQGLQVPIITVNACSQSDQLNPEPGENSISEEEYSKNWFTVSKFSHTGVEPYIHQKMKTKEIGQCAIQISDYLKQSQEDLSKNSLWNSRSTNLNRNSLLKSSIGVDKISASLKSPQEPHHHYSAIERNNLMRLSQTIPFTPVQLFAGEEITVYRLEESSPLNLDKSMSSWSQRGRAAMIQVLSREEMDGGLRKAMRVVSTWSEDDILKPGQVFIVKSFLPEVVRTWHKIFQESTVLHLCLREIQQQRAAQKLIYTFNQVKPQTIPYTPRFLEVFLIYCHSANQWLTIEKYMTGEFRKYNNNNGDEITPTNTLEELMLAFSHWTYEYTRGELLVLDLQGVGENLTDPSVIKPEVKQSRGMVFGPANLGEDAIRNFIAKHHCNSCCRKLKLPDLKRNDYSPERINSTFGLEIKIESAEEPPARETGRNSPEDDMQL
Sequence of UniProt Q16620 (whole entry, looked up): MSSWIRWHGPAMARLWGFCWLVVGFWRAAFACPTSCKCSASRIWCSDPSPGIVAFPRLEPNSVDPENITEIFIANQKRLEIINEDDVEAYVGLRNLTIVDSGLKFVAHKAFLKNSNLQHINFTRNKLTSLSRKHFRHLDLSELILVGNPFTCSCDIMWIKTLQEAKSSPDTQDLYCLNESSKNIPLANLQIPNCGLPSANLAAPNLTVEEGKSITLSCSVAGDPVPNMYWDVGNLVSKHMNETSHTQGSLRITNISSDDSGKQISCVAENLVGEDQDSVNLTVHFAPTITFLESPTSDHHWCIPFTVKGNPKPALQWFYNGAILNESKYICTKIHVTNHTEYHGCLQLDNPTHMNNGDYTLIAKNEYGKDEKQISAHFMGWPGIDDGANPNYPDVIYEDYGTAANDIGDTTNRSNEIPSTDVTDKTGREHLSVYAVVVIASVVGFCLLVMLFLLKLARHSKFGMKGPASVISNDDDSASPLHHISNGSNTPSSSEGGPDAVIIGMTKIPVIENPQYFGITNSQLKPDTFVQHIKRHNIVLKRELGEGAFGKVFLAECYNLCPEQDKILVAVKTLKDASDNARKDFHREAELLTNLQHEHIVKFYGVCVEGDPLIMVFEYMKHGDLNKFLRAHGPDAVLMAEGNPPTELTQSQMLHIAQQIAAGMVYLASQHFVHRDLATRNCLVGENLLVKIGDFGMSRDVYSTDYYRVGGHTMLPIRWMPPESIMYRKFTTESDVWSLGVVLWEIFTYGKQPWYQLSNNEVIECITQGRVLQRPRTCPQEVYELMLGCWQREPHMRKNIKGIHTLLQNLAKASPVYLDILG
Sequence of UniProt P42336 (whole entry, unmodified, looked up): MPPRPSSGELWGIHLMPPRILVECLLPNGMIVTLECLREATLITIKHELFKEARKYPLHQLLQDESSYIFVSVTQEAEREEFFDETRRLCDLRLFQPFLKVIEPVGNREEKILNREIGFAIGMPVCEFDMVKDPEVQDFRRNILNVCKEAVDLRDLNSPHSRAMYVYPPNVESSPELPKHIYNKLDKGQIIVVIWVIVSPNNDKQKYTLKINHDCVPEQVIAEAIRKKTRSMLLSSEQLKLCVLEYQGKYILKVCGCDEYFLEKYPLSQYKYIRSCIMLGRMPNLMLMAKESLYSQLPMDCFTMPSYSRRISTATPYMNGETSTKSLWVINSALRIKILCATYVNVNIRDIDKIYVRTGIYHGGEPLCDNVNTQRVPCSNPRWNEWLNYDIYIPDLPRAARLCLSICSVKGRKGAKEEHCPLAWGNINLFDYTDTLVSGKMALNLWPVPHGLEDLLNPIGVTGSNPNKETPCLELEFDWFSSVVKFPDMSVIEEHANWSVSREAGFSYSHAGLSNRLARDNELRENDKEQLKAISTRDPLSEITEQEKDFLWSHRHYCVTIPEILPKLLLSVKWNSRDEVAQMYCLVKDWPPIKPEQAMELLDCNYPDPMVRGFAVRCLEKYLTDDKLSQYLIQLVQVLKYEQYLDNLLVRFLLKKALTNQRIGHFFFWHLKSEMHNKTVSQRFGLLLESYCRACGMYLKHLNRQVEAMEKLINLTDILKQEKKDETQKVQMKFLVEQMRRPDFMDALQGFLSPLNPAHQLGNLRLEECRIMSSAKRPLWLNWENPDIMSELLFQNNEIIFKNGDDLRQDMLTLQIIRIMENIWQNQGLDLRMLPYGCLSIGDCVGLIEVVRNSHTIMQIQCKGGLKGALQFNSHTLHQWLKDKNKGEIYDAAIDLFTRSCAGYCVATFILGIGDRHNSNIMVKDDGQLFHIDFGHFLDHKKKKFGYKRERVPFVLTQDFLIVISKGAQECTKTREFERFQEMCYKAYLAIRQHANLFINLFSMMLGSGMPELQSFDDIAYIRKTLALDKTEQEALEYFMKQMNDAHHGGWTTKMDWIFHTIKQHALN

Study 1
Target: Interferon regulatory factor 7, full length, phosphomimetic (IRF7, Homo sapiens, UniProt Q92985, residues 1-503, S471D/S472D/S475D/S476D/S477D/S483D/S484D/S487D)
Sequence of UniProt Q92985 (whole entry, unmodified, looked up): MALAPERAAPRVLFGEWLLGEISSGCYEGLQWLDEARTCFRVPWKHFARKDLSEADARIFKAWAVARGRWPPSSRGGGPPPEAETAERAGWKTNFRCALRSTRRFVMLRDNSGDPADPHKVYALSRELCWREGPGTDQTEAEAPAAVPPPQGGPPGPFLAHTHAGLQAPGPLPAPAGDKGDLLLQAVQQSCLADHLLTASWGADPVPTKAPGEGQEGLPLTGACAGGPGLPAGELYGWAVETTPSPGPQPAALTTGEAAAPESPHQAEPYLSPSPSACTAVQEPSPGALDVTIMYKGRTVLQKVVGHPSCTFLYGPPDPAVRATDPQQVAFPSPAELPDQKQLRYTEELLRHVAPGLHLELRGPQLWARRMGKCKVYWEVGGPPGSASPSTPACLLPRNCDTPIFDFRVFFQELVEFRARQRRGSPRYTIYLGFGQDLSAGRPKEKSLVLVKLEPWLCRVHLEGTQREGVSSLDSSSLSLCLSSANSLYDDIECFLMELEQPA
Technique: protein-binding microarray
Form: double-stranded DNA, one strand shown
Sample: in vitro
Tested at: 2200 nM top
Notes: 60-bp whole probe
Together with: salmon DNA 0.4 mg/ml
Relative to: random background probes
Direction: higher = stronger binding
Constant ends, left off below: GCCTAGCAC … GTCTTGATTCGCTTGACGCTGCTG
Strand | fitted relative affinity [z-score]
TTAGGTTCCGGTTTCGGTTCGTGCTAG | 14.8
GACGATTTCAGTCTCGGGACGTGCTAG | 0.834
GGCGGTTTCGACACTGGGGACGTGCTA | 2.21
TAAGGACTGGGGTATCGGTTAGTGCTA | -0.399
GACGATATCTGGTTTCGAGACGTGCTA | 2.8
TTAGATATCAGTTGCGATTAGTGCTAG | 0.508
GACGGACTGGACACTGGGGGCGTGCTA | -0.391
GTGTTTCTCAAATGTTTTGTTGTGCTA | 1.64

Study 2
Target: Serine/threonine-protein kinase 25 (STK25, Homo sapiens, UniProt O00506)
Sequence of UniProt O00506 (whole entry, looked up): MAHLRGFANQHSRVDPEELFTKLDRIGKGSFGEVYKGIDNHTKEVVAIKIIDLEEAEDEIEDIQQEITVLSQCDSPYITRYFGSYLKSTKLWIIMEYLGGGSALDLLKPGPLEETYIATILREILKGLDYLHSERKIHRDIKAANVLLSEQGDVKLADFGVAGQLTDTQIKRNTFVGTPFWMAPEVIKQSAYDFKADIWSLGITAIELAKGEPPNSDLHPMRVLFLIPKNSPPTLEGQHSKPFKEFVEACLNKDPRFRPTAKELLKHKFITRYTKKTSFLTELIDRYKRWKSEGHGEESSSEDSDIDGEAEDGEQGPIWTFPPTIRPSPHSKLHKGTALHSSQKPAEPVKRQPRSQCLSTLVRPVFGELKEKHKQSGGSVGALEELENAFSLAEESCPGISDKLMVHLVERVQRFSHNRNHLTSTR
Observed: enzyme activity
Action: inhibitor
Tested at: 0.5 µM
Relative to: control
SMILES | remaining activity [%]
O=C1NC(=O)C(c2cn(CCCn3ccnc3)c3ccccc23)=C1Nc1ccccc1 | 63.1
N#CC(C#N)=C(N)/C(C#N)=C/c1ccc(O)cc1 | 90.4
O=c1c2ccccc2[nH]c(=S)n1CCN1CCC(=C(c2ccc(F)cc2)c2ccc(F)cc2)CC1 | 96.6
CC(C)[C@H](CO)Nc1nc(Nc2cc(N)cc(Cl)c2)c2ncn(C(C)C)c2n1 | 81.8
O=S(=O)(c1cccc2cnccc12)N1CCCNCC1 | 84.8
COc1ccc(C(=O)Nc2sc3c(c2C(N)=O)CCCC3)cc1OC | 91.7
CCOC(=O)c1c(C)[nH]c(/C=C2\C(=O)Nc3ccccc32)c1C | 98.5
O=C(Nc1cccc(Nc2cc(Nc3cccc(C(F)(F)F)c3)ncn2)c1)C1CC1 | 97.4
Cc1nc(-c2ccccc2)c(-c2ccncc2)o1 | 104
O=C(CCCc1ccc(-c2ccccc2F)cc1)Nc1ccc(O)cc1 | 105
CNC(=O)c1cc(Oc2ccc(NC(=O)Nc3ccc(Cl)c(C(F)(F)F)c3)cc2)ccn1 | 104
O=C1NC(=O)C(c2cn(CCCO)c3ncccc23)=C1c1cnccn1 | 78.9
Nc1[nH]nc2nc3ccccc3nc12 | 99.9
COc1cc2ncnc(Nc3ccc(Oc4ccccc4)cc3)c2cc1OC | 109

Study 3
Variant: I105H
Target: ABI1, truncated, D143A, DHFR fusion (Arabidopsis thaliana)
Technique: DHFR PCA, deep sequencing
Sample: yeast
Notes: methotrexate growth selection, single substitutions
Relative to: wild-type fitted maximum
Direction: higher = stronger binding
Parent: PYL1, truncated, DHFR fusion (Arabidopsis thaliana); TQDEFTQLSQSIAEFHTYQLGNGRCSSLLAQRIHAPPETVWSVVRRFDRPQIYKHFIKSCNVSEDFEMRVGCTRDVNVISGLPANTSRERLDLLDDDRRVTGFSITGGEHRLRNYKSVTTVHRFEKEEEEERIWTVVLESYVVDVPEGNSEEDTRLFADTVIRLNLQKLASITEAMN
conditions | relative binding score [%]
together with: (+)-ABA 0.032 µM | -9.68
together with: (+)-ABA 2500 µM | 15.8
together with: (+)-ABA 0.39 µM | -13.3
together with: (+)-ABA 200 µM | 6.33
together with: (+)-ABA 0 µM | 7.59
together with: (+)-ABA 0.11 µM | -2.52

Study 4
Compound: Cc1noc([C@H]2C[C@@H](c3ccc(C(F)(F)F)cc3)CN(C(=O)N3CCS(=O)(=O)C3)C2)n1
Observed: cell-free assay
Technique: competition with immobilised ligand
Tested at: 1 µM
target | remaining binding
Tyrosine-protein kinase ABL1, phosphorylated (ABL1, Homo sapiens, UniProt P00519, M351T) | 84%
HIPK4 (Homo sapiens, UniProt Q8NE63) | 100%
TAOK1 (Homo sapiens, UniProt Q7L7X3) | 100%
STK38 (Homo sapiens, UniProt Q15208) | 100%
COQ8A (Homo sapiens, UniProt Q8NI60) | 91%
EGFR (Homo sapiens, UniProt P00533, G719S) | 100%
MAP3K11 (Homo sapiens, UniProt Q16584) | 86%
PLK2 (Homo sapiens, UniProt Q9NYY3) | 100%
Tyrosine-protein kinase ABL1, phosphorylated (ABL1, Homo sapiens, UniProt P00519, Q252H) | 100%
BRSK1 (Homo sapiens, UniProt Q8TDC3) | 100%
PIK3CA (Homo sapiens, UniProt P42336, I800L) | 100%
BRSK2 (Homo sapiens, UniProt Q8IWQ3) | 100%
EIF2AK1 (Homo sapiens, UniProt Q9BQI3) | 100%
PRKAA1 (Homo sapiens, UniProt Q13131) | 100%
LRRK2 (Homo sapiens, UniProt Q5S007) | 65%
DCLK3 (Homo sapiens, UniProt Q9C098) | 100%
NTRK2 (Homo sapiens, UniProt Q16620) | 83%
NEK10 (Homo sapiens, UniProt Q6ZWH5) | 84%
MAP3K12 (Homo sapiens, UniProt Q12852) | 92%
TRPM6 (Homo sapiens, UniProt Q9BX84) | 100%
CAMK1D (Homo sapiens, UniProt Q8IU85) | 100%
ULK2 (Homo sapiens, UniProt Q8IYT8) | 100%
RIOK1 (Homo sapiens, UniProt Q9BRS2) | 100%
TNIK (Homo sapiens, UniProt Q9UKE5) | 99%
eIF-2-alpha kinase GCN2, C-terminal kinase domain (EIF2AK4, Homo sapiens, UniProt Q9P2K8, S808G) | 28%

Excerpt of the above (study 4):
target | remaining binding
TRPM6 (Homo sapiens, UniProt Q9BX84) | 100%
HIPK4 (Homo sapiens, UniProt Q8NE63) | 100%
Tyrosine-protein kinase ABL1, phosphorylated (ABL1, Homo sapiens, UniProt P00519, M351T) | 84%
EIF2AK1 (Homo sapiens, UniProt Q9BQI3) | 100%
